Published values gathered from unrelated publications.
Protocols differ between the studies behind these lines.
Target: Serine/threonine-protein kinase Nek9 (NEK9, Homo sapiens, UniProt Q8TD19)

C=CC(=O)Nc1cccc(-c2cnc3[nH]cc(C(=O)NC(C)(C)C)c3n2)c1
inhibition (enzyme activity, inhibitor; 0.1 µM): 28%

CC(C)=CC1OC(C)(C)C2C=C3C(=O)C(Cl)=CC(O)C3C3C(O)C4OC4C(=O)C132 (stereo not shown)
remaining binding (cell-free assay, competition with immobilised ligand; 10 µM): 97%

CCN1CCN(Cc2ccc(C(=O)Nc3ccc(C)c(NCc4cnc5[nH]ccc5c4OC)c3)cc2C(F)(F)F)CC1
remaining binding (binding, competition with immobilised ligand; 1 µM): 100%

COc1c(Cl)cccc1Nc1c(-c2ccncc2C#C[C@@]2(C)CCCN2C(=O)/C=C/CN(C)C)[nH]c2c1C(=O)NCC2
remaining binding (binding, competition with immobilised ligand; 3 µM): 100%

Cc1cccc(O[C@H]2CCC[C@@H](C(C)CNCc3ccncc3)C2)c1 (relative stereo)
inhibition (enzyme activity, inhibitor; 10 µM): -7%

Cc1cnc2nc1Nc1cccc(c1)COC/C=C/COCc1cc(ccc1OCCN1CCOCC1)N2
remaining binding (binding; 0.1 µM): 94%

Nc1ncc2c(n1)-c1c([nH]c3ccc(C4=CCOCC4)cc13)CCC2
remaining binding (binding, competition with immobilised ligand; 1 µM): 100%

CNC1C[S+]2CC[S+]3CC[S+](C1)[Ru-4]321([N]=C=S)[n]2c3ccc(OC)cc3c3c4c(c5cc(F)c[n+]1c5c32)C(=O)NC4=O (stereo not shown)
remaining binding (KinomeScan; 0.1 µM; relative to: untreated): 87%

NC(=O)[C@@H](O)C[C@H]1CCc2sc3ncnc(O[C@H]4CC[C@H](N5CCOCC5)CC4)c3c21
inhibition (enzyme activity, inhibitor; 10 µM): 1%

COc1ccc(C(=O)/C=C/c2ccccc2-c2c[nH]c3ccc(C#N)cc23)c(O)c1
inhibition (enzyme activity, inhibitor; 20 µM): -8%

COc1cc(Nc2nccc(-c3cnn4nc(OC)ccc34)n2)cc(C(F)(F)F)c1
remaining binding (binding, competition with immobilised ligand; 1 µM): 64%

Nc1ncc(-c2cc(-c3cnn(CC(F)(F)F)c3)ncc2F)nc1C(=O)NC1CNCC(F)C1 (stereo not shown)
remaining activity (enzyme activity; 1 µM; relative to: DMSO control): 106%

C=CC(=O)N1CCc2ccc(-n3c(=O)ccc4cnc5ccc(-c6cnn(C)c6)cc5c43)cc21
remaining binding (KINOMEscan; 1 µM; relative to: DMSO control): 100%
